Assay results pooled from the literature.
A part holds a random share of what one study measured.

Block 1
Target: Interferon regulatory factor 5, full length, phosphomimetic (IRF5, Homo sapiens, UniProt Q13568-2, residues 1-514, S451D/S453D/S456D/S462D)
Method: protein-binding microarray
Molecule type: double-stranded DNA, one strand shown
Matrix: in vitro
Tested at: 940 nM top
Setting: 60-bp whole probe
Added: salmon DNA 0.4 mg/ml
Relative to: random background probes
Reading: higher = stronger binding
Constant ends, left off below: GCCTAGCAC … GTCTTGATTCGCTTGACGCTGCTG
`TCAACGAATTAGAAAGAGCAGTGCTAG` — result for “fitted relative affinity”: -0.377 z-score.
Under “fitted relative affinity”, `TCCCAATTCTCTTTTCACTTGTGCTAG` is recorded as 2.44 z-score.
`TCACTTTTCAGTCCCCTACTGTGCTAG` — result for “fitted relative affinity”: 1.68 z-score.
Under “fitted relative affinity”, `TCAGTCATCCATCTGAAACTGTGCTAG` is recorded as 0.208 z-score.
Under “fitted relative affinity”, `GACTTTCTTTCAAATGAAGGAGTGCTA` is recorded as 2.04 z-score.
`GACAAACTGAGACTGGAGACGTGCTAG` — result for “fitted relative affinity”: -0.195 z-score.
Under “fitted relative affinity”, `CCGCATATCGGGGTGCGCCCGGTGCTA` is recorded as -0.212 z-score.
For `TAATGGATATATATCATTTAGTGCTAG`, “fitted relative affinity” read 0.0673 z-score.
`TCATCTTTCCAACTCTGACTGTGCTAG` — result for “fitted relative affinity”: 0.951 z-score.
`GACGAAATCAGTATCGAGACGTGCTAG`: “fitted relative affinity” 2.34 z-score.
`GACAGACTGCTTATCCTGACGTGCTAG` — result for “fitted relative affinity”: -0.62 z-score.
`TTAGAACTGGGGACTGGGTTAGTGCTA`: “fitted relative affinity” -0.364 z-score.
`TTAGGACTGGGTCTCGGCTAGTGCTAG` — result for “fitted relative affinity”: -0.0144 z-score.
For `TTTGGTATCGGTTTCGGTTAGTGCTAG`, “fitted relative affinity” read 15.3 z-score.
`TCATGTCTTAGATTCCTACTGTGCTAG` — result for “fitted relative affinity”: 0.232 z-score.
`GACGGTTTCCTTTTCCTGGCGTGCTAG` — result for “fitted relative affinity”: 2.77 z-score.
`CTTTTTTTCAAGAAACAGTTCGTGCTA`: “fitted relative affinity” 0.176 z-score.
For `GACGAACTGGGGTTTCGAGGCGTGCTA`, “fitted relative affinity” read 1.62 z-score.

Block 2
Target: RNA binding protein fox-1 homolog 2, RRM domain, GST-SBP tag (RBFOX2, Homo sapiens, UniProt O43251-10, residues 100-194)
Method: RNA Bind-n-Seq
Molecule type: RNA
Matrix: in vitro
Tested at: 365 nM
Setting: natural RNA segment, single round, ends assumed
Relative to: no-protein control
Reading: higher = stronger binding
`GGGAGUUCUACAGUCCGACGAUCCCCACUGCACACUUGCUGUGUACAAUGACUGAGCCCUUUCUUGUAGUUUGUUUCCUUGUUUGAGAGGUGUGCAUGCGACCGUGGCUUUUCCCAAAGUUUCUGACUUUGUGUGGAAUUCUCGGGUGCCAA`: “RBNS enrichment (R)” 2.73.
`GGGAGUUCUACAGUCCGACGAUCCUGAGGGAAGAAACACCACGUCACAGUCACGAUGUCUGCCUUACUGGCUUCCCCAGGGAAGGAAAAAUGUGCUUCCUCCCUUUUUUCAAGGGUUCAUCUUUGCUUUAAUUUGGAAUUCUCGGGUGCCAA` — result for “RBNS enrichment (R)”: 0.423.
Under “RBNS enrichment (R)”, `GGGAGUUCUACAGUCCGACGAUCCCUCUGCCUGCCUCAUGCCCCUUCCCCCUGGCCUACCAAGGACAGCCCACAGCCCGCACUGCCGGCUCACUUGGGUCCUUCCUCGAUAGCUUUGGGCAGAGCCCUUGCUUUGGAAUUCUCGGGUGCCAA` is recorded as 0.428.
Under “RBNS enrichment (R)”, `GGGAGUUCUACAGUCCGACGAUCAAGAAGCAGUGAGGUCUGGGAAUAUUCCAAAGUCAUGUCUCUGAAUAUGUGUCCUUGACGUGCAAGCUUUGUAAAACCCCAUCCCCGCUUAGGUGCGAGGCAUCACCUUCUGGAAUUCUCGGGUGCCAA` is recorded as 0.382.
`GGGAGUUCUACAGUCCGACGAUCUCUAGGGGUGGGCUGUUUACACACUCCAGGAAUCUAGGGGUCGGUGUCUCCUUCCUGGAGAGGCUAUUAGGAGCCUUGUUGCUGGGGUGCAUAUGCUUAUAUGUGAAUGUUGGAAUUCUCGGGUGCCAA` — result for “RBNS enrichment (R)”: 0.517.
`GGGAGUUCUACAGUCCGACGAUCUUCUCAAUCCCUGGUAAUCACCUCCCUUUUACAUGGACAGACUUGAGGUGAGGCCUAAGUAUGAGGCACCUGAAGAUAAAACCAAUGGGCAGAACCAAUGGCCCCAGUCGUGGAAUUCUCGGGUGCCAA` — result for “RBNS enrichment (R)”: 0.603.

Block 3
Target: RING finger protein unkempt homolog, zinc fingers 1-6, GST-SBP tag (UNK, Homo sapiens, UniProt Q9C0B0, residues 30-357)
Method: RNA Bind-n-Seq
Molecule type: RNA
Matrix: in vitro
Tested at: not given
Setting: RNA with constant flanks, human-mouse chimeric sites, ends assumed
Relative to: input RNA pool
Reading: higher = stronger binding
Construct (chain): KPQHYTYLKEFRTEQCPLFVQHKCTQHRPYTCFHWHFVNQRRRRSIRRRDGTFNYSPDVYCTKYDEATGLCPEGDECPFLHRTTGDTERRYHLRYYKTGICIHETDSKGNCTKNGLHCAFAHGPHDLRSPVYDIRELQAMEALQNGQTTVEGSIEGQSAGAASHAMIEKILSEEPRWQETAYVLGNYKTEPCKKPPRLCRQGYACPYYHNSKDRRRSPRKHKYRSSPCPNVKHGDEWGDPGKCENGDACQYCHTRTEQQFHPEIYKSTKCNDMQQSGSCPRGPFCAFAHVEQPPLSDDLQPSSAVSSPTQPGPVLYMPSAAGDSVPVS
The bound/input enrichment of `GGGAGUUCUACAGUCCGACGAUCAGAUAUUAAGUAUUUUGAAAAAACUCGAACAGAUUUGACAAGGGUAGCCAGCUUGGAGUCUAGCAACUUUGCCAAUGGUUUACCAAUCUGGGGGCUUGUUUUUCUUUUCUUCUUUCAAAUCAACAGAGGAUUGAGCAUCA` is reported as 0.307 ratio.
The bound/input enrichment of `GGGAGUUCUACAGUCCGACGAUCUGACAAGCACGAGCAUCAGCCAUGCCUUUCCUUGACAUACAGAAAAAGCUGGGCAUCAGCCUGGACCGAUGGUUGACGUUCCUAAGCGCAGAACAGCCCUAUAAGAACGCCGCUCGGUGCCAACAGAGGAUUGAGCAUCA` is reported as 0.0762 ratio.
`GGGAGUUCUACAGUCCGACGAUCUAAGUCCUGUGCCAGCAAUUUAUCCCAAAAGUUUUAAAUUCUGGACCAAUUGUGUUUGUUUCCUGAUUAUUGUAUCCAAUACUUUGCCUAGUAUGUAACUCACUCUUACUGAUAAUAAAACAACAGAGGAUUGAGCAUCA` gave a bound/input enrichment of 0.911 ratio.
The bound/input enrichment of `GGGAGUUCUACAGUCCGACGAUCGCUCUUGGCAAUGUAAUAAGUGCCUUGGGGGACAAGAGCAAGAGAGCCACCCAUGUCCCUUACAGAGACUCUAAGCUGACAAGACUCUUGCAGGAUUCCCUUGGGGGUAACAGCCAAACCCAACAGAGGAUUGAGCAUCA` is reported as 0.104 ratio.
The bound/input enrichment of `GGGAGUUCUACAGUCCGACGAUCGAGCGUCUUGCCCGCACUGGGAUCAUCGUGACCACUAGUGAGGCUGUUCUGCUUCAGCUGGUGGCUGACAAAGACCAUCCAAAAUUCAAGGAAAUUCAGAACCUAAUUAAGGCGAGUGCCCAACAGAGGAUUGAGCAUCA` is reported as 0.122 ratio.
For `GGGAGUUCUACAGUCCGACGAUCUUGCUACUAACUCCAUGGGUCAAGUUCCUGUGGGAAUCAUACAGGCAGUGUUUGGACCUUCUUCGAAACAAUUCUAGAGUAGAGCGCCUGUACCAUGAUAUCGCCCAACAAGCUUUCAAACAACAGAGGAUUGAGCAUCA`, the bound/input enrichment was 0.155 ratio.
With `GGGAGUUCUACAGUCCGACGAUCUUUGUAUUUAUGCUAAGCACGCGUGCUGGUGGUCUUGGCAUCAAUCUUGCAACUGCUGAUGUAGUCAUUUUAUAUGACUCAGAUUGGAAUCCGCAAGUUGAUCUUCAGGCUAUGGACCGUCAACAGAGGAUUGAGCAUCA` the bound/input enrichment was 0.157 ratio.
`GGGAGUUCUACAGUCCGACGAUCCCUGCUCAGAUCACCAUGAAAGUAAUCCAAGGCUUGUAUAGUGGGGUCACCACAGUGGAACUGGACACUUUGGCUGCUGAGACAGCCGCGACCUUGACCACGAAGCACCCUGACUAUGCCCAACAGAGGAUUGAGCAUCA` has a bound/input enrichment of 0.138 ratio.

Block 4
Target: Centromere-binding protein 1, full length, N-terminal tag (CBF1, Saccharomyces cerevisiae, UniProt P17106, residues 1-351)
Sequence of UniProt P17106 (whole entry, looked up): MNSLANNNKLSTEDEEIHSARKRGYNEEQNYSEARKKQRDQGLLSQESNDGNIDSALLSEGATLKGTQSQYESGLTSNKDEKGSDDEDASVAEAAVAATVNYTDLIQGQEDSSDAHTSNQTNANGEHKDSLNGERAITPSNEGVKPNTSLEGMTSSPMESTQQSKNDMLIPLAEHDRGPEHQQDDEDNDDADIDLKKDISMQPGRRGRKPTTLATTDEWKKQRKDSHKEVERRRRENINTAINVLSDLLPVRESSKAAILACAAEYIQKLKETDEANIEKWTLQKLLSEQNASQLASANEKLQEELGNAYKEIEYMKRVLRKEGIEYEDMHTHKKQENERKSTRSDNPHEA
Method: protein-binding microarray
Molecule type: double-stranded DNA, one strand shown
Matrix: in vitro
Tested at: 0.8 µM
Setting: whole 60-bp probe, no competitor
Reading: higher = stronger binding
With `CTATACTGTTCTCCTAACGTGTCTGTGTGTTTGTTCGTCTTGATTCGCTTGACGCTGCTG` the fluorescence intensity was 575 a.u.
For `TGTACGAAGCTATTGCACGTTCCTATAGTAGTTAGGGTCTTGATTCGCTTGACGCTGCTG`, the fluorescence intensity was 581 a.u.
The fluorescence intensity of `GAAAGTAGTTCGGTGCTCGTGACAAACCTTTTTTAGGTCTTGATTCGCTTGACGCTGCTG` is reported as 1230 a.u.
`GAATACATTTTTTCTTGCGTGCACGAAGGTTAGTAGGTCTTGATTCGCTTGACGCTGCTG` gave a fluorescence intensity of 544 a.u.
With `GAATACGACTCCCTGCACATGGTTGCTATTTTTTAGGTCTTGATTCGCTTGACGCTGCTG` the fluorescence intensity was 767 a.u.
The fluorescence intensity of `CTAATTTTGTAGGTGCACGTTTGCAACTTTATTTTCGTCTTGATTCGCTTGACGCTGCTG` is reported as 557 a.u.
For `CTAGAAGCAGAAATACACGCAATAAGTGAATCTTTCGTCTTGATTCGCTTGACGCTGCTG`, the fluorescence intensity was 549 a.u.
The fluorescence intensity of `CTAGGGCACTTTGGTCTGACATCACTTTTTTTATTCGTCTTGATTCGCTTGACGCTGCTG` is reported as 519 a.u.
With `CTAGCTGCACCGCACCACCTTGCAGGTCCCGTGTTCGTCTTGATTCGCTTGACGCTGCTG` the fluorescence intensity was 1550 a.u.
With `GAAACCTGAGTGGGTCATCACTACTTTGTGTTTTAGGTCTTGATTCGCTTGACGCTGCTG` the fluorescence intensity was 515 a.u.
The fluorescence intensity of `GAAATGATATATCATCACCCGGAGGCCGGTTATTAGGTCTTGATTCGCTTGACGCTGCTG` is reported as 482 a.u.
The fluorescence intensity of `GAAGTCAATTTCAAACGTGAGGTATGGGTTCCATAGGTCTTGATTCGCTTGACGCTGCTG` is reported as 534 a.u.
The fluorescence intensity of `GAACCTGGCAAGCACAACGTGTGACACAGAAGATAGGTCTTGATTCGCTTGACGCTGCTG` is reported as 789 a.u.
For `CTATATCCTCATCGTAACGTGAATTTTTTTGTCTTCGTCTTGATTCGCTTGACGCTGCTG`, the fluorescence intensity was 561 a.u.
`GAATGTGTGTACCATCACGTTTCTTGTTAAATATAGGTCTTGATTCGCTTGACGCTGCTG` has a fluorescence intensity of 1190 a.u.
`CTAATACTGTACTATTGCGTGAAAACGAACAGATTCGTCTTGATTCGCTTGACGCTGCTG` has a fluorescence intensity of 579 a.u.
`CTACCATACTACCATCACCCGAATGTACAGCCATTCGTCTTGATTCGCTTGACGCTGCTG` has a fluorescence intensity of 548 a.u.
With `GAATTCAAGTTATATAACGTGAGAGATAAAATATAGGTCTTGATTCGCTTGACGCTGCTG` the fluorescence intensity was 719 a.u.

Excerpt of the above (block 1):
`TCATCTTTCCAACTCTGACTGTGCTAG` — result for “fitted relative affinity”: 0.951 z-score.
`GACGAAATCAGTATCGAGACGTGCTAG`: “fitted relative affinity” 2.34 z-score.
`GACAGACTGCTTATCCTGACGTGCTAG` — result for “fitted relative affinity”: -0.62 z-score.
`TTAGAACTGGGGACTGGGTTAGTGCTA`: “fitted relative affinity” -0.364 z-score.
`TTAGGACTGGGTCTCGGCTAGTGCTAG` — result for “fitted relative affinity”: -0.0144 z-score.
For `TTTGGTATCGGTTTCGGTTAGTGCTAG`, “fitted relative affinity” read 15.3 z-score.
`TCATGTCTTAGATTCCTACTGTGCTAG` — result for “fitted relative affinity”: 0.232 z-score.
`GACGGTTTCCTTTTCCTGGCGTGCTAG` — result for “fitted relative affinity”: 2.77 z-score.
